# Assay results pooled from the literature.
# Each numbered part is a random draw from the data of one study; scales do not carry over between parts.

# Block 1
# Target: Prothrombin, mature alpha-thrombin (F2, Homo sapiens, UniProt P00734)
# Method: aptamer microarray, sandwich
# Form: DNA with 2'F-ANA
# Matrix: in vitro
# Tested at: 200 nM
# Setting: whole 15-mer aptamer, many near background
# With: Cy3 exosite-II aptamer, 400 nM
# Reading: higher = stronger binding
# Oligonucleotide: GGTTGGTGTGGTTGG
Modification,mean fluorescence intensity [a.u.]
2'F-ANA at 1 2 3 4 6 10 12 14,48.9
2'F-ANA at 4 7 8 9 11 15,300
2'F-ANA at 1 2 5 6 8 10 13,46.3
2'F-ANA at 1 2 3 4 5 7 8 10 14,46.2
2'F-ANA at 2 4 6 7 9,287
2'F-ANA at 1 2 6 7 9 10 11 13,48.8
2'F-ANA at 1 6 7 9 11 13 15,107
2'F-ANA at 1 4 5 6 10 11 12 14,52.1

# Block 2
# Target: Alpha-1D adrenergic receptor (ADRA1D, Homo sapiens, UniProt P25100)
# Chain of UniProt P25100 (whole entry, looked up): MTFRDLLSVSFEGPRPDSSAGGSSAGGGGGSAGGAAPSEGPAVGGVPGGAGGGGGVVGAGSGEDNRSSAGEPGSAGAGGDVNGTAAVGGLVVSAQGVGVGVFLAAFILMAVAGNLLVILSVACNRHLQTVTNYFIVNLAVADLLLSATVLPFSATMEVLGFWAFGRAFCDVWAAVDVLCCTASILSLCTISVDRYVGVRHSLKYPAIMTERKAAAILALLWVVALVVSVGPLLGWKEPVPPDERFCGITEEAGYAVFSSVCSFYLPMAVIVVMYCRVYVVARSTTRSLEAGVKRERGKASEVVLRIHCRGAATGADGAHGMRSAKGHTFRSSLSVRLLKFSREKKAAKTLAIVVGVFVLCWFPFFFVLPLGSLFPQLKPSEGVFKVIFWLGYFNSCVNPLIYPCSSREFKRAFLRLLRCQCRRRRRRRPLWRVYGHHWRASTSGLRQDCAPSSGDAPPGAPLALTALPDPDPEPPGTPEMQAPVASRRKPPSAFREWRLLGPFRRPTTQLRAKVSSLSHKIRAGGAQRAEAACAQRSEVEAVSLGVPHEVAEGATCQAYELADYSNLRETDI
# Observed: binding
# Method: radioligand binding
# Tested at: 10 µM
Structure (SMILES),inhibition [%]
CNC(=O)c1ccc(Nc2ncc(C(F)(F)F)c(NCc3nccnc3N(C)S(C)(=O)=O)n2)cc1,4.13
CCOC(=O)c1cc2cc(-c3cc(C(=O)NCc4ccc(C(=O)O)cc4)nn3C)ccc2[nH]1,-10.6
Cc1c(NC(=O)c2cc(C(N)=O)nc3cc(F)ccc23)c(C(F)(F)F)nn1Cc1ccc(C(C)(C)C)cc1,2.92
CC(=O)c1c(NS(C)(=O)=O)c2cc(-c3ccc(Cl)cc3)c(-c3ccc(Cl)cc3Cl)nc2n(C)c1=O,15.9
O=C(Nc1cccnn1)N1CC(CC=Cc2cncc(Oc3ccc(C(F)(F)F)cn3)n2)C1,-10.6
O=C(Nc1cccnn1)N1CCC(=Cc2cccc(Oc3ccc(C(F)(F)F)cn3)c2)CC1,3.84
Cc1nc(C2CCN(C(=O)c3ccc(OC(F)(F)F)cc3N)CC2)c2ncc(N3CCN(C)CC3)cc2n1,5.29
C[C@@H]1CN(c2cc(-c3nn(C)c4ccc(OC5(C)CC5)cc34)ncn2)C[C@H](C)O1,10.2
O[C@]1(C(F)(F)F)CCCC[C@H]1Nc1ccc(F)cc1,-2.73
COc1cccc(CNC(=O)c2nc3scc(COCc4ccc(C(=O)O)cc4)c3c(=O)[nH]2)c1,-5.4
O=C(Nc1ccc(-n2nc(-c3cccnc3)cc2C(F)(F)F)cn1)c1ccc(-c2ccccc2)c(F)c1,18.3
C[C@H](NC(=O)c1cnc2n1[C@](C)(Cc1ccc(C#N)cc1)C(=O)N2c1cc(Cl)c(F)c(Cl)c1)C(=O)NC1(c2ccccn2)CC1,-18.5

# Block 3
# Target: Insulin receptor-related protein (INSRR, Homo sapiens, UniProt P14616)
# Chain of UniProt P14616 (whole entry, looked up): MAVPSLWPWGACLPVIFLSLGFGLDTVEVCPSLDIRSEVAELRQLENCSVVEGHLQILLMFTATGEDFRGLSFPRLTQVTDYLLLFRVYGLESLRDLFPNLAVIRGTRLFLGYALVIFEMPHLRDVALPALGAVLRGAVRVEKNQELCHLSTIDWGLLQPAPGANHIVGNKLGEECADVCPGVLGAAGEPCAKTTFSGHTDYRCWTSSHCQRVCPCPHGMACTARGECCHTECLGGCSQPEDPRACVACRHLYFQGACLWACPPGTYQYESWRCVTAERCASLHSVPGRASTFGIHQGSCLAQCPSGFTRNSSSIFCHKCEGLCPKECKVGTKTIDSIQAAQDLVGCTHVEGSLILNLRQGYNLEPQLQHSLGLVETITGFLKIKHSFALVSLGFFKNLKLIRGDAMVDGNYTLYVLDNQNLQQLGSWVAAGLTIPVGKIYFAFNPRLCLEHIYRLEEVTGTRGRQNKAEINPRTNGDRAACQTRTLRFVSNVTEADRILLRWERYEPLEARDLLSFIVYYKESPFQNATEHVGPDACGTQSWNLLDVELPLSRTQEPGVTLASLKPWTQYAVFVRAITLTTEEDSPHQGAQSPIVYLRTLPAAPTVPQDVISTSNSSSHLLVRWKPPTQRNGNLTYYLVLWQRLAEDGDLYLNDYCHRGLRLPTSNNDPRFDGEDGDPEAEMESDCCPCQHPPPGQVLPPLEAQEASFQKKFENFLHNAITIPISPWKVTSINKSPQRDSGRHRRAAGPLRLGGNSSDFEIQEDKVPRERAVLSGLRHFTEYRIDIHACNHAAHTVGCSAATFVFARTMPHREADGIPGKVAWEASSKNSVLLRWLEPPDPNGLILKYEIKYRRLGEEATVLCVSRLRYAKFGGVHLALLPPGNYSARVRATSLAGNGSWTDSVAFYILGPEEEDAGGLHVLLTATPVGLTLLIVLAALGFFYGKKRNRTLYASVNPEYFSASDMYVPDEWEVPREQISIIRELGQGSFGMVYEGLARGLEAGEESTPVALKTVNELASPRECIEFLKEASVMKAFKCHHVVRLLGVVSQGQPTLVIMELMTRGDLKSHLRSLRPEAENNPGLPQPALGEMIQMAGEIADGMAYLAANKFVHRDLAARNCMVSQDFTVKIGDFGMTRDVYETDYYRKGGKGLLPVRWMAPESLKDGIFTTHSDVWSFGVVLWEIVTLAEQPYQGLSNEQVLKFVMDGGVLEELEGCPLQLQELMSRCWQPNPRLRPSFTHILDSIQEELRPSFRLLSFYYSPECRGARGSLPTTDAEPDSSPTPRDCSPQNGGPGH
# Observed: enzyme activity
# Action: inhibitor
# Tested at: 0.5 µM
# Relative to: control
SMILES,remaining activity
O=C1NC(=O)/C(=C/c2ccc3nccnc3c2)S1,111%
CC(C)[C@H](CO)Nc1nc(Nc2cccc(Cl)c2)c2ncn(C(C)C)c2n1,88.2%
Nc1[nH]nc2nnc(-c3c(-c4ccccc4)nn4ccccc34)cc12,95.7%
Cn1cnc2cc3c(Nc4cccc(Br)c4)ncnc3cc21,92.1%
CCC(=O)Nc1ccc2ncnc(Nc3cccc(Br)c3)c2c1,98.4%
Cc1ccc(NC(=O)c2ccc(CN3CCN(C)CC3)cc2)cc1Nc1nccc(-c2cccnc2)n1,108%
Cn1cc(/C=C2\C(=O)Nc3ccc(S(N)(=O)=O)cc32)c2ccccc21,86.9%
COc1cc2ncnc(N3CCN(C(=O)Nc4ccc(Oc5ccccc5)cc4)CC3)c2cc1OC,96.8%
CC(C)c1nn(-c2c(Cl)cccc2Cl)c2nc(Cc3ccc(OCCO)cc3)[nH]c(=O)c12,94.2%
O=c1cc(N2CCOCC2)oc2c1ccc1ccccc12,97.4%
CCN1/C(=C/C(C)=O)Sc2ccc(OC)cc21,91.6%
CN(C)CCCn1cc(C2=C(c3c[nH]c4ccccc34)C(=O)NC2=O)c2ccccc21,91.3%
CCOc1cc2ncnc(Nc3cccc(Br)c3)c2cc1OCC,88.8%
Cc1nc(Nc2ncc(C(=O)Nc3c(C)cccc3Cl)s2)cc(N2CCN(CCO)CC2)n1,96.9%
O=C(Nc1ccc(Cl)cc1)c1ccccc1NCc1ccncc1,96.1%
CS(=O)(=O)CCNCc1ccc(-c2ccc3ncnc(Nc4ccc(OCc5cccc(F)c5)c(Cl)c4)c3c2)o1,104%
COc1cc2ncnc(Nc3ccc(OCc4ccccc4)cc3)c2cc1OC,99.9%
COc1cc2ncc(-c3ccccc3)nc2cc1OC,99.2%
COc1ccc(Cl)cc1NC(=O)Nc1cc(C)nc2ccccc12,100%

# Block 4
# Target: Interferon regulatory factor 3, full length, phosphomimetic (IRF3, Homo sapiens, UniProt Q14653, residues 1-427, S386D/S396D/S398D/S402D/T404D/S405D)
# Method: protein-binding microarray
# Form: double-stranded DNA, one strand shown
# Matrix: in vitro
# Tested at: 2540 nM top
# Setting: 60-bp whole probe
# With: salmon DNA 0.4 mg/ml
# Relative to: random background probes
# Reading: higher = stronger binding
# Constant ends, left off below: GCCTAGCAC … GTCTTGATTCGCTTGACGCTGCTG
# Residues (chain): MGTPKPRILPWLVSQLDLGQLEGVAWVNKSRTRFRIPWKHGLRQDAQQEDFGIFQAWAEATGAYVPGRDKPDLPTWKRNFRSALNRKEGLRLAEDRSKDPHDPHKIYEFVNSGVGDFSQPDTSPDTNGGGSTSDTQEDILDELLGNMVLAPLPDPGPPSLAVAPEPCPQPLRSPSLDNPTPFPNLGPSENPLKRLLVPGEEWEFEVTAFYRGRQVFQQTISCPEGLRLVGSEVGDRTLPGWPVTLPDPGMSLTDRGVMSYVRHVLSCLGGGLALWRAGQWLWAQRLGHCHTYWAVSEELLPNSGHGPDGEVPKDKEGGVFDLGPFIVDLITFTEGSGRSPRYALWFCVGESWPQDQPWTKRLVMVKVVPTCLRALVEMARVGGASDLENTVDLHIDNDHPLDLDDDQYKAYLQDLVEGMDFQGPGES
Oligonucleotide,fitted relative affinity
TCACTTTTATTTTTTTTACTGTGCTAG,2.28 z-score
TTAGGTATCGGTTTCGGATAGTGCTAG,7.91 z-score
TTAAGACTGGGGTTTCGGTTAGTGCTA,2.61 z-score
TTAGGTTTCGGGACTGGGATAGTGCTA,4.35 z-score
GACGTTTTCGGTTCCGGGACGTGCTAG,6.48 z-score
TTAGATTTCAGCTCCGATTAGTGCTAG,0.855 z-score
TTAGGTTTCGGGTTTCGTTTAGTGCTA,5.94 z-score
TTGACTCTTTCTGTCAGTTTGTGCTAG,0.98 z-score

# Repeated from above (block 2):
Structure (SMILES),inhibition [%]
CNC(=O)c1ccc(Nc2ncc(C(F)(F)F)c(NCc3nccnc3N(C)S(C)(=O)=O)n2)cc1,4.13
O=C(Nc1cccnn1)N1CC(CC=Cc2cncc(Oc3ccc(C(F)(F)F)cn3)n2)C1,-10.6
O[C@]1(C(F)(F)F)CCCC[C@H]1Nc1ccc(F)cc1,-2.73
C[C@@H]1CN(c2cc(-c3nn(C)c4ccc(OC5(C)CC5)cc34)ncn2)C[C@H](C)O1,10.2
